{"data": "Results from different studies", "sample": "plasma"}
{"SMILES": "N#Cc1cnc2cc(OCC3CCNCC3)c(F)cc2c1Nc1cc(F)c(OCc2cccc(Cl)n2)cc1Cl", "species": "female CD-1 mouse", "route": "oral", "dose": "20 mg/kg", "AUC(0-t)": "3680 ng·h/mL"}
{"SMILES": "Cc1ccc2oc(-c3c4c(N)n[nH]c(=O)c4nn3-c3ccc(NC(=O)/C=C/CN(C)C)cc3)c(C)c2c1", "species": "mouse", "route": "intraperitoneal", "dose": "3 mg/kg", "AUC(0-t)": "699 ng·h/mL"}
{"SMILES": "COC(=O)C1OC(Oc2c(-c3ccccc3)oc3cc(O)c(O)c(O)c3c2=O)C(O)C(O)C1O (stereo not shown)", "species": "BALB/c mouse", "route": "oral", "dose": "10 mg/kg", "notes": "single dose", "AUC(0-t)": "35.7 ng·h/mL"}
{"SMILES": "C=CC(=O)Nc1cccc(Cn2ncc3cnc(Nc4cnn(CCOC)c4)nc32)c1", "species": "male BALB/c mouse", "route": "oral", "dose": "30 mg/kg", "AUC(0-t)": "801 ng·h/mL"}
{"SMILES": "Cc1ccc(CNC(=O)Cc2ccc(-c3ccc(OCCN4CCOCC4)cc3)cn2)cc1", "species": "CD-1 mouse", "route": "oral", "dose": "10 mg/kg", "AUC(0-t)": "940 ng·h/mL"}
{"SMILES": "CCC(=C(c1ccc(Cl)cc1)c1ccc(OCCN2CCOCC2)cc1)c1ccc(OC)cc1", "species": "female C57BL/6 mouse", "route": "oral", "dose": "400 mg/kg", "notes": "single dose", "AUC(0-t)": "47800 ng·h/mL"}
{"SMILES": "NS(=O)(=O)NCC(F)(F)c1ccccc1F", "species": "mouse", "route": "oral", "dose": "5 mg/kg", "AUC(0-t)": "17000 ng·h/mL"}
{"SMILES": "C[N+]1(CC(=O)OC2CCCCCCCCCCC2)CCCCC1", "species": "mouse", "route": "intraperitoneal", "dose": "2.5 mg/kg", "notes": "single dose", "AUC(0-t)": "180 ng·h/mL"}
{"SMILES": "COc1cc(N2CCN(C(=O)C3CCCN3)CC2)ccc1Nc1ncc(Cl)c(Nc2ccccc2P(C)(C)=O)n1 (stereo not shown)", "species": "mouse", "route": "oral", "dose": "10 mg/kg", "AUC(0-t)": "4900 ng·h/mL"}
{"SMILES": "C[C@H]1CN(C(=O)c2cn(-c3ccnc(N)n3)c3cc(C#CC4(O)CCCCC4)ccc23)CCN1", "species": "CD-1 mouse", "route": "oral", "dose": "10 mg/kg", "AUC(0-t)": "165 ng·h/mL"}
{"SMILES": "Brc1ccccc1-c1nnc(CSc2nnnn2-c2ccccc2)o1", "species": "male C57BL/6 mouse", "route": "intraperitoneal", "dose": "10 mg/kg", "AUC(0-t)": "1.58 µM·h"}
{"SMILES": "O.O=C(O)/C=C\\C(=O)O.O=c1[nH]cnc2n[nH]cc12", "species": "female BALB/c mouse", "route": "oral", "dose": "30 mg/kg", "AUC(0-t)": "69600 ng·h/mL"}
{"SMILES": "COC(=O)c1ccc2c(c1)NC(=O)/C2=C(\\Nc1ccc2c(c1)CCN2C(=O)CN1CCOCC1)c1ccccc1", "species": "CD-1 mouse", "route": "intravenous", "dose": "10 mg/kg", "AUC(0-t)": "6640 ng·h/mL"}
{"note": "For quick reference, copied from above:"}
{"SMILES": "O.O=C(O)/C=C\\C(=O)O.O=c1[nH]cnc2n[nH]cc12", "species": "female BALB/c mouse", "route": "oral", "dose": "30 mg/kg", "AUC(0-t)": "69600 ng·h/mL"}
{"SMILES": "CCC(=C(c1ccc(Cl)cc1)c1ccc(OCCN2CCOCC2)cc1)c1ccc(OC)cc1", "species": "female C57BL/6 mouse", "route": "oral", "dose": "400 mg/kg", "notes": "single dose", "AUC(0-t)": "47800 ng·h/mL"}
